Measurements pooled from the literature.
Several values in a cell are separate wells, animals, samples, runs or records. In brackets after ≈: the same amount, converted by molar mass.

Cc1c2c(nn1C)CSCc1cc(n(C)n1)CSc1cc(c3ccccc3c1)OCCCc1c(C(=O)O)n(C)c3c-2c(Cl)ccc13 — result for “log2 fold change”: -3.75 (Staphylococcus aureus; label-free quantitative proteomics, measured: SAOUHSC_02979 protein; SA113; concentration not given; reference: untreated control).
CN[C@H](CC(C)C)C(=O)N[C@H]1C(=O)N[C@@H](CC(N)=O)C(=O)N[C@H]2C(=O)N[C@H]3C(=O)N[C@H](C(=O)N[C@H](C(=O)O)c4cc(O)cc(O)c4-c4cc3ccc4O)[C@H](O)c3ccc(c(Cl)c3)Oc3cc2cc(c3O[C@@H]2O[C@H](CO)[C@@H](O)[C@H](O)[C@H]2O[C@H]2C[C@](C)(N)[C@H](O)[C@H](C)O2)Oc2ccc(cc2Cl)[C@H]1O gave an MBC of 2 µg/mL (≈ 1.38 µM) (Staphylococcus aureus; CAAS-2019-CAAS-2019-02 clinical drug-resistant isolate, PBS).
CC[C@H](C)[C@H](NC(=O)[C@H](C)NC(=O)[C@H](CCCCN)NC(=O)[C@H](CC(C)C)NC(=O)[C@H](C)NC(=O)[C@@H](NC(=O)[C@H](Cc1c[nH]cn1)NC(=O)[C@H](CC(C)C)NC(=O)[C@@H](NC(=O)[C@@H](NC(=O)[C@H](CCCCN)NC(=O)[C@H](C)NC(=O)[C@H](C)NC(=O)[C@H](CO)NC(=O)[C@H](CCCCN)NC(=O)[C@H](Cc1ccccc1)NC(=O)[C@@H](NC(=O)[C@H](CCCCN)NC(=O)[C@H](CC(C)C)NC(=O)[C@H](Cc1ccccc1)NC(=O)[C@H](CO)NC(=O)[C@H](CCCCN)NC(=O)[C@H](Cc1c[nH]c2ccccc12)NC(=O)[C@H](CCCCN)NC(C)=O)[C@@H](C)O)[C@@H](C)O)C(C)C)[C@@H](C)O)C(=O)N[C@@H](CO)C(=O)N[C@@H](CO)C(N)=O — result for “MIC geometric mean”: 5.54 µg/mL (≈ 1.89 µM) (Staphylococcus aureus; MRSA; 130 strains).
With CO/N=C(\C(=O)N[C@@H]1C(=O)N2C(C(=O)O)=C(CSC(=O)c3ccco3)CS[C@H]12)c1csc(N)n1 the MBC was 32 µg/mL (Staphylococcus aureus; CAAS-2019-CAAS-2019-11 clinical drug-resistant isolate, 25% plasma).
CN[C@H](CC(C)C)C(=O)N[C@H]1C(=O)N[C@@H](CC(N)=O)C(=O)N[C@H]2C(=O)N[C@H]3C(=O)N[C@H](C(=O)N[C@H](C(=O)O)c4cc(O)cc(O)c4-c4cc3ccc4O)[C@H](O)c3ccc(c(Cl)c3)Oc3cc2cc(c3O[C@@H]2O[C@H](CO)[C@@H](O)[C@H](O)[C@H]2O[C@H]2C[C@](C)(N)[C@H](O)[C@H](C)O2)Oc2ccc(cc2Cl)[C@H]1O has an MIC of 1 µg/mL (≈ 0.69 µM) (Staphylococcus aureus; MRSA strain 1).
For CC(C)C[C@H](NC(=O)CNC(=O)CNC(=O)CNC(=O)[C@H](Cc1ccc(O)cc1)NC(=O)[C@H](CC(C)C)NC(=O)[C@@H](NC(=O)CNC(=O)[C@H](Cc1ccc(O)cc1)NC(=O)[C@H](CCCCN)NC(=O)[C@H](CC(N)=O)NC(=O)[C@@H](NC(=O)[C@H](CCCCN)NC(=O)[C@H](Cc1c[nH]c2ccccc12)NC(=O)CN)[C@@H](C)O)[C@@H](C)O)C(=O)N[C@@H](CCCCN)C(=O)N[C@@H](CCCCN)C(=O)N[C@@H](CC(C)C)C(=O)N[C@@H](CC(C)C)C(=O)N[C@@H](CC(C)C)C(=O)N[C@@H](CC(C)C)C(=O)N[C@@H](CC(C)C)C(=O)N[C@@H](CCCCN)C(=O)N[C@@H](CCCCN)C(=O)N[C@@H](CC(C)C)C(=O)NCC(=O)O, the MIC was 32 µg/mL (≈ 11.2 µM) (Staphylococcus aureus; USA300; with: 6 µM NH4Cl).
The MIC of CC[C@H](C)[C@H](NC(=O)[C@H](CCCCN)NC(=O)[C@H](CCCCN)NC(=O)[C@H](Cc1ccccc1)NC(=O)[C@@H](NC(=O)[C@@H](NC(=O)[C@H](CCCNC(=N)N)NC(=O)[C@H](Cc1ccccc1)NC(=O)[C@@H](NC(=O)[C@H](CCCCN)NC(=O)[C@H](CCCCN)NC(=O)[C@@H](N)CCSC)[C@@H](C)CC)C(C)C)[C@@H](C)CC)C(=O)N[C@@H](CC(C)C)C(=O)N[C@@H](CCCCN)C(=O)N[C@@H](CCCNC(=N)N)C(=O)N[C@@H](CC(C)C)C(=O)N[C@H](C(=O)N[C@H](C(=O)O)C(C)C)[C@@H](C)CC is reported as 4 µg/mL (≈ 1.76 µM) (Staphylococcus aureus; broth microdilution; ATCC 25923; with: 4.5 mM KCl).
Cc1[nH]c(/C=C2\C(=O)Nc3ccc(S(=O)(=O)Cc4c(Cl)cccc4Cl)cc32)c(C)c1C(=O)N1CCC[C@@H]1CN1CCCC1 has a maximum inhibition of 20.4% (human coronavirus OC43; virus-induced cell killing; MRC-5; screen).
For C=CC[C@@H]1c2ccc(OC)c(OC)c2CN2CCc3cc4c(cc3[C@H]12)OCO4, “relative wound size” read 1.13 (Staphylococcus aureus; P2rx7+/+ mice, skin wound infection; dose not given, day 3; reference: day 0).
S=C=NCCc1ccccc1 gave a maximum inhibition of 5.15% (human coronavirus OC43; virus-induced cell killing; MRC-5; screen).
OB(O)c1csc2ccccc12 — result for “growth relative to untreated”: 58% and 39.4% and 55.6% and 63.3% and 51.3% (Staphylococcus aureus; USA300 wild type; 100 µM; reference: untreated).

Some of these lines once more:
S=C=NCCc1ccccc1 gave a maximum inhibition of 5.15% (human coronavirus OC43; virus-induced cell killing; MRC-5; screen).
